Published values collected from several papers.
Each line is one published result; not all experiments were run side by side. Numbers after ± are the reported error.
Organism: Salmonella typhimurium

SMILES	assay	test system	setting	how to read	endpoint	value
O=[N+]([O-])c1ccc(N2CCC(NCCC(O)c3ccc(F)c4ccccc34)CC2)c(C(F)(F)F)c1 (stereo not drawn)	SOS/umu test	TA1535/pSK1002	0.004 mg/mL, 4 h, with S9, lower range		survival	107%
COCCN(CCOC)N=O	mutagenicity, Ames plate incorporation	TA98	2500 µg/plate, 3 d, without S9, methanol		revertant colonies per plate	23.7 ± 8
O=[N+]([O-])c1ccc(NC2CCNCC2)c(C(F)(F)F)c1	genotoxicity, SOS/umu test	TA1535/pSK1002	0.002 mg/mL, 4 h, without S9, full range		induction factor	0.6
N#C[C@@]1(n2ccc(N)nc2=O)O[C@H](CO)[C@@H](O)[C@H]1O		TA100	2.5 µM, without S9, unit not given	relative to: control	viability	99.6
O=[N+]([O-])c1ccc(N2CCN(CCC(O)c3ccc(F)cc3)CC2)c(C(F)(F)F)c1 (stereo not drawn)	SOS/umu test	TA1535/pSK1002	0.004 mg/mL, 4 h, without S9, lower range		survival	123%
CN(N=O)c1ccc(F)cc1	mutagenicity, Ames plate incorporation	TA1535	1500 µg/plate, 3 d, without S9, methanol		revertant colonies per plate	19.3 ± 11
OC(CCN1CC=C(c2ccc(F)cc2)CC1)c1ccc(F)c2ccccc12 (stereo not drawn)	genotoxicity, SOS/umu test	TA1535/pSK1002	0.016 mg/mL, 4 h, without S9, lower range		induction factor	0.9
CC(=O)N1CCC(C(=O)N2CCN3C(=O)c4cc(-c5ccccc5)ccc4NC(=O)C3C2)CC1 (stereo not drawn)		TA1537	5000 µg/plate, together with: rat liver S9		revertants per plate	16
CNC(=O)c1c(N(C)N=O)ncn1C	mutagenicity, Ames plate incorporation	TA1537	50 µg/plate, without S9, methanol		revertant colonies per plate	13 ± 4
Cc1cc(C(=O)NC(C)(C)COc2cccc3c2C(N)=NS(=O)(=O)N3)cc(C)n1	Ames test, confirmatory	TA1535	100 µg/plate	relative to: solvent control	revertant ratio	0.9
CC(C)N(C)N=O	mutagenicity, Ames plate incorporation	TA98	1500 µg/plate, 3 d, without S9, methanol		revertant colonies per plate	25.7 ± 2
COc1cccc(-c2n[nH]c(SCc3ccccn3)n2)c1OC	Ames test, plate incorporation	TA100	0.031 mg/plate, without S9		revertant colonies per plate	110

For quick reference, copied from above:
SMILES	assay	test system	setting	how to read	endpoint	value
OC(CCN1CC=C(c2ccc(F)cc2)CC1)c1ccc(F)c2ccccc12 (stereo not drawn)	genotoxicity, SOS/umu test	TA1535/pSK1002	0.016 mg/mL, 4 h, without S9, lower range		induction factor	0.9
